# Results from different studies.
# Parts stem from different laboratories: compare values within a part only. “And” joins repeats or separate records; there may be more than shown.
# Chain of UniProt Q16566 (whole entry, looked up): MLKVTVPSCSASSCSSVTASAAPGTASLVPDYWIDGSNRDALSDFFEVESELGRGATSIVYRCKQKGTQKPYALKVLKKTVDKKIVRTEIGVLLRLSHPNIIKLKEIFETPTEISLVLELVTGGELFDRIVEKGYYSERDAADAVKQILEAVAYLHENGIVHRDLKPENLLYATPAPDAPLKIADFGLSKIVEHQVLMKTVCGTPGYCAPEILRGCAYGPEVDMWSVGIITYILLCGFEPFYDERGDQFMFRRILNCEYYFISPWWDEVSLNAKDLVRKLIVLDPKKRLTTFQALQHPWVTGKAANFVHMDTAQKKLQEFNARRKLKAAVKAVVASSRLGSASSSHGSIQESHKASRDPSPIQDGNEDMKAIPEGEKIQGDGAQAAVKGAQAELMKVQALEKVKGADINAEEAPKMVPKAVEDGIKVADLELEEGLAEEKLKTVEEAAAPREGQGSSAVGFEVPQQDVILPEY
# Chain of UniProt P46098 (whole entry, looked up): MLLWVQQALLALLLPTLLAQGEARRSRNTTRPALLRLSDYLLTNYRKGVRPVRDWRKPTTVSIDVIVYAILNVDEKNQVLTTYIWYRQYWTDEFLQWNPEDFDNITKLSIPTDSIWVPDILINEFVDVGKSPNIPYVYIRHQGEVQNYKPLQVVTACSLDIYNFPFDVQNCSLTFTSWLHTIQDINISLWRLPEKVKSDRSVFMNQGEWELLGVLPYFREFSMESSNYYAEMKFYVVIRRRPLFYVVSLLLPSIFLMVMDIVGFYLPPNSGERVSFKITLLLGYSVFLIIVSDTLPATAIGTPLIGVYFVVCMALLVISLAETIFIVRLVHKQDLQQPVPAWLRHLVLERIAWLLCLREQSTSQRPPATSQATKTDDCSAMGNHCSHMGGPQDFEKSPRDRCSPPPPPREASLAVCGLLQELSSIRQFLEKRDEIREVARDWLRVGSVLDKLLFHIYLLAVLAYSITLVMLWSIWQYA
# Chain of UniProt Q9HAZ1 (whole entry, looked up): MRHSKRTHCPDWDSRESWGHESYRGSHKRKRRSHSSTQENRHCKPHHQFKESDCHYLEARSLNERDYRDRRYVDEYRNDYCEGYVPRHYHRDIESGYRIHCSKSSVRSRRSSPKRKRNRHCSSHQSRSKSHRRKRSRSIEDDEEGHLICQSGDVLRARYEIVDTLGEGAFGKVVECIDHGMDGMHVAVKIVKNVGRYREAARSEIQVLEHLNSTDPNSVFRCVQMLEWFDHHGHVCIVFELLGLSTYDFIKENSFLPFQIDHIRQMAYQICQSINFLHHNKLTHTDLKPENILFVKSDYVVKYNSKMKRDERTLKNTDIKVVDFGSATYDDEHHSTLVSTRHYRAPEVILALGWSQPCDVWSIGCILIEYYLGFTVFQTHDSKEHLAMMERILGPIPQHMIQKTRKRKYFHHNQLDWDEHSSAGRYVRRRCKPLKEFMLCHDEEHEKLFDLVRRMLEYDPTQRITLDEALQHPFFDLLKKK
# Chain of UniProt P06493 (whole entry, looked up): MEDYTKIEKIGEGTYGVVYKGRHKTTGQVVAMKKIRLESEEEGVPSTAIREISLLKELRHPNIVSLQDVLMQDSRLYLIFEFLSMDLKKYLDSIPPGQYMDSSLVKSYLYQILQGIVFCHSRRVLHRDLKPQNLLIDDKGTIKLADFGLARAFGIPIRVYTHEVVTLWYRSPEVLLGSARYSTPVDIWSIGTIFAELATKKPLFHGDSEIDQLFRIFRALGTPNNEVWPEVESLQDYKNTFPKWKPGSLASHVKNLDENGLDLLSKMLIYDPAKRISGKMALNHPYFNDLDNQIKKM
# Chain of UniProt Q96L34 (whole entry, looked up): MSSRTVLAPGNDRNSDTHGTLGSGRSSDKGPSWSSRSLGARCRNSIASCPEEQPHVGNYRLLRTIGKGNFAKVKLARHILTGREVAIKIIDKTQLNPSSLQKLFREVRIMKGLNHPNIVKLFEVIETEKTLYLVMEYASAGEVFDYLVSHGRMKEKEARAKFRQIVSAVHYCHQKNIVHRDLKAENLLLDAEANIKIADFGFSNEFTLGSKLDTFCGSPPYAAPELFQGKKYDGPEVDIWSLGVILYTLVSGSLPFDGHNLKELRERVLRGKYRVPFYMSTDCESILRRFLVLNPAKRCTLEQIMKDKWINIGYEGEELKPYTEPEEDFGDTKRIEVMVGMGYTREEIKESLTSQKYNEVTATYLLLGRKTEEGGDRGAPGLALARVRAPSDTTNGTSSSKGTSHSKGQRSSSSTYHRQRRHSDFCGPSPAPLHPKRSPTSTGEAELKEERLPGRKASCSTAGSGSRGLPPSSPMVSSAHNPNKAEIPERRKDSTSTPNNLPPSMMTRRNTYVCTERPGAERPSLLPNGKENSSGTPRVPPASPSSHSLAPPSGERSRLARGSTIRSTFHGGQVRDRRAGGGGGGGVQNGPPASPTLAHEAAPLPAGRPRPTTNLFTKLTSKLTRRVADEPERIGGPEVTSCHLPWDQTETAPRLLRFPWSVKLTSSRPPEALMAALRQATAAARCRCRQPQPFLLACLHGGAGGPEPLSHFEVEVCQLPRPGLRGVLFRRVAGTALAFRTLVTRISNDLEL
# Chain of UniProt Q8N4C8 (whole entry, looked up): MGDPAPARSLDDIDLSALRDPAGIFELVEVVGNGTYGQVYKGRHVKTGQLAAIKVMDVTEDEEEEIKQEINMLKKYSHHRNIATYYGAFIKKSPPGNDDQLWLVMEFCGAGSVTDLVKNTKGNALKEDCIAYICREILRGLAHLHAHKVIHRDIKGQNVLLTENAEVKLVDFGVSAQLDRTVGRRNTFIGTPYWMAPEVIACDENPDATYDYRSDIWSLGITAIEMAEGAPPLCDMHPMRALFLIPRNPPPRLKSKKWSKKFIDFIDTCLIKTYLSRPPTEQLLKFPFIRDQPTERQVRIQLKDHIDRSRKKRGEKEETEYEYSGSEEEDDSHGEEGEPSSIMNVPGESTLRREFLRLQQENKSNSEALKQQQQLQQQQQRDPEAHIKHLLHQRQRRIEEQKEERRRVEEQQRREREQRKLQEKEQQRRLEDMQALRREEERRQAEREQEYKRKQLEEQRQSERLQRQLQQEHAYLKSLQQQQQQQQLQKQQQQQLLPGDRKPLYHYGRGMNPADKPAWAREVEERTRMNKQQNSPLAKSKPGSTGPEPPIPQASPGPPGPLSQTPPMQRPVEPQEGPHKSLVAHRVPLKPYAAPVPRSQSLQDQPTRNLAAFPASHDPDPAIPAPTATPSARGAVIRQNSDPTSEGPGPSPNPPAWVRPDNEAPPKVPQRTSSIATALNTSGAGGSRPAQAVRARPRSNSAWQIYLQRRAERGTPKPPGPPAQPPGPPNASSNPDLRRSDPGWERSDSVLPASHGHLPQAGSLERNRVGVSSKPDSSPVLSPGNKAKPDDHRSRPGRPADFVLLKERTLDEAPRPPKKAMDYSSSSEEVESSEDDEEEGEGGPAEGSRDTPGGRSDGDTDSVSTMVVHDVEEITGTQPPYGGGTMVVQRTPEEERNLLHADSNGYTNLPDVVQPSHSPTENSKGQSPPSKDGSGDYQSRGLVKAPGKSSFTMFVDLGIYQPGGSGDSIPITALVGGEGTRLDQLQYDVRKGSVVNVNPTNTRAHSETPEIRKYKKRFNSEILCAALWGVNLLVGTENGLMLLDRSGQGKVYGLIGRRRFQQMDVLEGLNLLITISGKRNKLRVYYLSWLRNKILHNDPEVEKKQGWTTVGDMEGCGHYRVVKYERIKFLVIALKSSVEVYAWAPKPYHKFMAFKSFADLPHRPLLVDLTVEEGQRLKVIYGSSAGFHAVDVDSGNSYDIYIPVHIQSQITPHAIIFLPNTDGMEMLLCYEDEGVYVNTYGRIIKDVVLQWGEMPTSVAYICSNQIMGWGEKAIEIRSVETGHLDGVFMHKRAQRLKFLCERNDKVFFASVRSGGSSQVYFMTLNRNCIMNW
# Chain of UniProt P28221 (whole entry, looked up): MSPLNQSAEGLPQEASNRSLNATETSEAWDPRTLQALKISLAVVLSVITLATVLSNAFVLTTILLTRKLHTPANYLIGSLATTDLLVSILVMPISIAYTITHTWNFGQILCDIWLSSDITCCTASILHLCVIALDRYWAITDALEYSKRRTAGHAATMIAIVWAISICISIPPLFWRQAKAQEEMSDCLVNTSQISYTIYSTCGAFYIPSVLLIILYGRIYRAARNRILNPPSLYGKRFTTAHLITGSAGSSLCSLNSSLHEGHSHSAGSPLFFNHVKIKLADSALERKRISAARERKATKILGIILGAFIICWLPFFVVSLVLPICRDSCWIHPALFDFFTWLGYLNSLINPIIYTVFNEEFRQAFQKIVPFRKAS
# Chain of UniProt Q6P2M8 (whole entry, looked up): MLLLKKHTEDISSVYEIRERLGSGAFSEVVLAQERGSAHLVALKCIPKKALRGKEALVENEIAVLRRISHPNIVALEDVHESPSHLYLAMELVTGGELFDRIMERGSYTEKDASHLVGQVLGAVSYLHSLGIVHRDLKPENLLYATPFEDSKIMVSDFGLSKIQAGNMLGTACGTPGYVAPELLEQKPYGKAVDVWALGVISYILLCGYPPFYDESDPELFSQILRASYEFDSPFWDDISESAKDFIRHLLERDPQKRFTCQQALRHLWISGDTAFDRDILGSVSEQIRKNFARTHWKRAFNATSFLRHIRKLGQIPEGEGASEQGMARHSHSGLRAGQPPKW

# Study 1 — SMILES: Cn1cnc2cc3c(Nc4cccc(Br)c4)ncnc3cc21; read-out: enzyme activity; action: inhibitor; tested at: 0.5 µM; reference: control
target,remaining activity
"ROCK1 (Homo sapiens, UniProt Q13464)",98.6%
"AKT2 (Homo sapiens, UniProt P31751)",106%
"Cyclin-dependent kinase 1, with cyclin A (CDK1, Homo sapiens, UniProt P06493)",95.8%
"MINK1 (Homo sapiens, UniProt Q8N4C8)",82.1%
"PNCK (Homo sapiens, UniProt Q6P2M8)",101%
"MAPK14 (Homo sapiens, UniProt Q16539)",93.6%
"DCLK2 (Homo sapiens, UniProt Q8N568)",92.9%
"MAPK11 (Homo sapiens, UniProt Q15759)",85.9%
"CDC42BPB (Homo sapiens, UniProt Q9Y5S2)",104%
"CLK4 (Homo sapiens, UniProt Q9HAZ1)",88.5%
"CAMK4 (Homo sapiens, UniProt Q16566)",98.6%
"MAP2K1 (Homo sapiens, UniProt Q02750)",113%
"KDR (Homo sapiens, UniProt P35968)",71.7%
"MARK4 (Homo sapiens, UniProt Q96L34)",105%

# Study 2 — read-out: enzyme activity; action: inhibitor; tested at: 10 µM
# Target: Calcium/calmodulin-dependent protein kinase type II subunit alpha (CAMK2A, Homo sapiens, UniProt Q9UQM7)
# Chain of UniProt Q9UQM7 (whole entry, looked up): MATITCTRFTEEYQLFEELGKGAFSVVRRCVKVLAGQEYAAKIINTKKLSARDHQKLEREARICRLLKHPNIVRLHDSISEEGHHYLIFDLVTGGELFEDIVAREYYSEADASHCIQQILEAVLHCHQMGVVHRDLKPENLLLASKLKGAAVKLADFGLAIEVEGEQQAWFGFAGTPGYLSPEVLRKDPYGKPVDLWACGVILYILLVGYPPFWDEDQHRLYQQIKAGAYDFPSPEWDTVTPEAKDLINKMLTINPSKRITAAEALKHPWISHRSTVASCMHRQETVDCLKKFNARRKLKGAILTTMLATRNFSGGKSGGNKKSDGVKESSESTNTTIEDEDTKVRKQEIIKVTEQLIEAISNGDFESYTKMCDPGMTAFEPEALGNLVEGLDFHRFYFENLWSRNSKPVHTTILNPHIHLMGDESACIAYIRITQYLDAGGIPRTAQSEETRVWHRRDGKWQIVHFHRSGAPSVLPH
Structure (SMILES),inhibition [%]
NC(N)=N/N=C/c1c(Cl)cccc1Cl,-9
COc1cc([C@@H]2[C@H]3CO[C@@]4(O)C(=O)[C@@H]2C=C([C@H]2Oc5cc(O)cc(O)c5C(=O)[C@@H]2O)[C@@H]34)ccc1O,7
O=c1c(O)c(-c2ccccc2)oc2ccccc12,-13
COc1ccc(Cl)cc1C(=O)NCCc1ccc(S(=O)(=O)NC(=O)NC2CCCCC2)cc1,-2
Cn1ccnc1S,2
CC(C)CCC1(O)O[C@H]2[C@H](O)[C@H]3[C@@H]4CC[C@@H]5C[C@@H](O[C@@H]6O[C@H](CO)[C@H](O)[C@H](O)[C@H]6O[C@@H]6O[C@H](CO)[C@@H](O)[C@H](O)[C@H]6O)CC[C@]5(C)[C@H]4CC[C@]3(C)[C@H]2[C@@H]1C (some centres unmarked),-33

# Study 3 — read-out: binding; technique: radioligand binding; tested at: 10 µM
# SMILES: CCCOc1ccc([C@H]2[C@H](C(=O)O)[C@@H](c3ccc4c(c3)OCO4)CN2CC(=O)Nc2c(CC)cccc2CC)cc1
target,inhibition [%]
"HTR3A (Homo sapiens, UniProt P46098)",-5.22
"HTR1D (Homo sapiens, UniProt P28221)",-3.09
"HTR2B (Homo sapiens, UniProt P41595)",12.8

# Study 4 — cell line: mouse MPNST tumor cells; technique: high-content nuclear imaging; item: cell number; tested at: 10 µM; time: 12 h; setting: mean of 2 replicates; reference: plate mean; direction: higher = more cells
SMILES,nuclei count
Clc1ccc(CSC(Cn2ccnc2)c2ccc(Cl)cc2Cl)cc1 (centres unmarked),1.53 z-score
C[C@]1(C(=O)N(CCCC(=O)O)Cc2cccc(Cl)c2)CCN1C(=O)c1csc2ccccc12,0.373 z-score
COc1ccccc1-c1c[nH]c2ncc(-c3cncc(C(=O)N(C)C)c3)cc12,0.499 z-score
O=C1CCc2ccc(OCCCCN3CCN(c4cccc(Cl)c4Cl)CC3)cc2N1,-0.258 z-score and -0.439 z-score and 2.02 z-score
Cc1cc(C)c(C2=NOC3C4CCC(C4)C23)c(C)c1 (centres unmarked),0.488 z-score
CN1CCCC(n2nc(Cc3ccc(Cl)cc3)c3ccccc3c2=O)CC1 (centres unmarked),-3.12 z-score

# Some of these lines once more (study 3):
target,inhibition [%]
"HTR3A (Homo sapiens, UniProt P46098)",-5.22
"HTR1D (Homo sapiens, UniProt P28221)",-3.09
"HTR2B (Homo sapiens, UniProt P41595)",12.8
